Assay results pooled from the literature.
Numbered parts are unrelated; each lists some results of a single study.

Block 1 — method: RNA Bind-n-Seq; form: RNA; sample: in vitro; tested at: 20 nM; setting: 6-mer, flanks averaged, single round; added: 150 mM KCl; relative to: input library; reading: higher = stronger binding
Target: TAR DNA-binding protein 43, full length, His tag (TARDBP, Homo sapiens, UniProt Q13148, residues 1-414)
`UAGCAU`: “6-mer enrichment (R)” 0.64.
`UAUGGG` — result for “6-mer enrichment (R)”: 1.96.
For `GAUCCG`, “6-mer enrichment (R)” read 0.854.
For `UGUAAG`, “6-mer enrichment (R)” read 0.974.
For `CUCAGU`, “6-mer enrichment (R)” read 0.625.

Block 2 — mode: inhibitor; tested at: 20 µM
Target: Replicase polyprotein 1ab, nsp13 helicase (rep, Severe acute respiratory syndrome coronavirus 2, UniProt P0DTD1)
`O=C(O)c1c2ccccc2cc2ccccc12` has an inhibition of 2.35%.
`COc1cc2c(cc1OC)C(=O)C(CC1CCN(Cc3ccccc3)CC1)C2` (stereo not shown) gave an inhibition of 2.34%.
The inhibition of `O=C(O)c1ccc(N2N=C(Cc3ccccc3)/C(=C\c3ccc(-c4ccccc4F)o3)C2=O)cc1` is reported as 4.99%.
The inhibition of `NCCc1c[nH]c2ccc(O)cc12` is reported as 1.01%.
`CCCCCOC(=O)Nc1nc(=O)n([C@@H]2O[C@H](C)[C@@H](O)[C@H]2O)cc1F` has an inhibition of -1.03%.
For `CC(=O)c1c(C)c2cnc(Nc3ccc(N4CCNCC4)cn3)nc2n(C2CCCC2)c1=O`, the inhibition was 13.8%.
For `N#Cc1ccc(N2N=C3c4ccc(C(=O)O)cc4CC[C@@H]3[C@@H]2C2CCCC2)cc1Cl`, the inhibition was 14.2%.
`COc1ccc(/C=C/C(=O)/C=C(O)/C=C/c2ccc(OC)c(OC)c2)cc1OC` has an inhibition of -16.9%.
The inhibition of `CC(C)OC(=O)[C@H](C)N[P@](=O)(CO[C@H](C)Cn1cnc2c(N)ncnc21)Oc1ccccc1` is reported as 2.6%.
For `O=C(O)C[C@H](O)C[C@H](O)/C=C/c1c(C2CC2)nc2ccccc2c1-c1ccc(F)cc1`, the inhibition was 1.06%.
`Cn1c(=O)c2c(ncn2CC(=O)Nc2ccc(-c3ccccc3)nn2)n(C)c1=O` has an inhibition of -7.02%.
With `CN1CC(=O)NC1=N` the inhibition was -4.9%.
The inhibition of `O=C(O)[C@@H](O)[C@H](O)[C@H](O)[C@@H](O)C(=O)O` is reported as -0.82%.
For `C/C(=C\c1csc(C)n1)[C@@H]1C[C@@H]2O[C@]2(C)CCC[C@H](C)[C@H](O)[C@@H](C)C(=O)C(C)(C)[C@@H](O)CC(=O)N1`, the inhibition was 3.01%.
`Cc1cccc(Nc2cc(Cl)nc(SCC(=O)O)n2)c1C` gave an inhibition of 0.77%.
`COP(=O)(OC)OC(c1ccc(Cl)cc1)P(=O)(OC)OC` (stereo not shown) has an inhibition of 4.98%.
`C[C@@H](NCc1cc(Br)cc2[nH]c(=O)c(=O)[nH]c12)P(=O)(O)O` gave an inhibition of -1.87%.
For `CCN1CCCC1CNC(=O)c1cc(S(=O)(=O)CC)c(N)cc1OC` (stereo not shown), the inhibition was -1.61%.
The inhibition of `CNC(=O)[C@@H](Cc1ccccc1)N(C)C(=O)[C@@H](Cc1ccc2ccccc2c1)N(C)C(=O)/C=C/CC(C)(C)N` is reported as 1.89%.
With `OCCN1C[C@H](O)[C@@H](O)[C@H](O)[C@H]1CO` the inhibition was 4.11%.
`OC[C@@H](O)[C@@H](O)[C@H](O)[C@H](O)CO` gave an inhibition of 10.3%.
`CCn1c(=O)c2c(nc(/C=C/c3ccc(OC)c(OC)c3)n2C)n(CC)c1=O` gave an inhibition of 5.19%.
`COC(=O)c1c(-c2cc(OC)c(OC)c(OC)c2)c2ccnc(OCc3ncccn3)c2c(=O)n1Cc1ccnc(C)c1` has an inhibition of 4.62%.
`CN(C)CC[C@@H](c1ccc(Cl)cc1)c1ccccn1` gave an inhibition of 7.09%.
`CC(C)(NS(=O)(=O)c1ccc(Oc2ccc(F)cc2)cc1)C(=O)NO` has an inhibition of 5.89%.

Block 3 — cell line: HEK-293T; read-out: pseudovirus infection; method: FDA-approved drug library screen; organism: VSV pseudotyped with SARS-CoV-2 spike; tested at: 10 µM; time: 16 h; relative to: vehicle-treated
The GFP-positive cells of `Cc1onc(-c2c(Cl)cccc2Cl)c1C(=O)N[C@@H]1C(=O)N2[C@@H]1SC(C)(C)[C@@H]2C(=O)O` is reported as 98.5%.
With `Clc1ccc(C(c2ccccc2Cl)C(Cl)Cl)cc1` (stereo not shown) the GFP-positive cells was 72.8%.
With `C[N+]1(C)[C@@H]2C[C@@H](OC(=O)C(O)(c3cccs3)c3cccs3)C[C@H]1[C@@H]1O[C@@H]12` the GFP-positive cells was 93.9%.

Block 4 — method: RNA Bind-n-Seq; form: RNA; sample: in vitro; tested at: not given; setting: RNA with constant flanks, ends assumed; relative to: input RNA pool; reading: higher = stronger binding
Target: RING finger protein unkempt homolog, zinc fingers 1-6, GST-SBP tag (UNK, Homo sapiens, UniProt Q9C0B0, residues 30-357)
Sequence of UniProt Q9C0B0 (30-357, looked up): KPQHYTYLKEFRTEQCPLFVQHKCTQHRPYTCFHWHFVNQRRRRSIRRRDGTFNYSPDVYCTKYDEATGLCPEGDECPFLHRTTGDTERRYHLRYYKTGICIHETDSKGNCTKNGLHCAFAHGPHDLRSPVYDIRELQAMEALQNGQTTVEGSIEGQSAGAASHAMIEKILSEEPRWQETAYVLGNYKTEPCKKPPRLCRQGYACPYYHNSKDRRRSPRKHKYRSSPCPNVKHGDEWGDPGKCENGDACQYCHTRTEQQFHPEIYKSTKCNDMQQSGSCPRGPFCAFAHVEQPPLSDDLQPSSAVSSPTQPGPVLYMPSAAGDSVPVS
Shared flanks, not repeated: GGGAGUUCUACAGUCCGACGAUC … CAACAGAGGAUUGAGCAUCA
The bound/input enrichment of `CUUCUGUUUGUAAGGAUGAUUUUAAUAUUAAUUCCAGGAACACAUGUUUUUAUUUCCUCUGCUGGAACCGGAGAAAGCUUAAUAUAUUCCCAAGCUGAAUGUUCUUGAAUUAUAUCUGCA` is reported as 0.228 ratio.
For `CAGAGUAUAGCAAUUGUUUUUGGUCCCACUCUAUUAAAACCAGAAAAAGAGACUGGUAAUACCGCAGUUCAUACUGUGUACCAGAAUCAGAUUGUAGAAUUAAUUCUUCUGGAACUGAGU`, the bound/input enrichment was 0.386 ratio.
With `CGCGGAGGCCGGCCGGGGGACGGCGUCCUGCCCCGGGAGCAGCUGAUACUUUUAGGGACACCCGCCGACCUAUUGGGAGAUUCGGAACAAGAAUGUAGGAGUGGAAGCCUGUAUGUGAGG` the bound/input enrichment was 0.426 ratio.
`ACAUAGCUGACUCUCCACUCAAUUUUGUUGUUGUUGUUGUCGUCAUUUUUCACAAUACUUCCGCAAAUUUUUUAUCUUAUGGGGGACUCGGUUUCUUUUCACAUGUGAUUUCUGGGAGGC` has a bound/input enrichment of 0.49 ratio.
With `GCUUUUUACCUUCUAGCGUUUUUUUACUACCUAUACGGCAUGAUCUAUGUUCUGGUGAGCUCUCCGAACAACACAGAAGAAUCGGUCCAGUUAAGUGCAUGCAAAACGCCACCAAUGAAG` the bound/input enrichment was 0.47 ratio.
`AGCAGAAGCAGGAACGUCAGAAGUUGAAGGGCAUCCUCAGCUGUCCGCGAGUUCUGCCGGACAUUCCAAUUUGGAUUUUUAUUAUUGCUGGAAAAAAGUUUGCUUUACCCCAGACUUGAA` gave a bound/input enrichment of 0.107 ratio.
For `AAUAAGGAAAAGUAUGGCAAACCAAAUAAAAGAAAAGGUUUUAAUGAAGGUUUAUGGGAGACCGAUAACAAUCCAAAAGUGAAAUUUUCAAGUCAACAGGCAGCAACUAAACAAUCAAAU`, the bound/input enrichment was 0.563 ratio.
With `AGGAUGGCACAACUUCUGGAUCUCUCUGUGGAUGAGUCAGAGGCUUUCCUCUCGAAUCCCGUCGUUAACAAGACCAUCUUUGCUAAAGUAGACAGGUUGGCUGGAGUCAUCAACUUCCAG` the bound/input enrichment was 0.105 ratio.

Block 5 — method: protein-binding microarray; form: double-stranded DNA, one strand shown; sample: in vitro; tested at: 0.8 µM; setting: whole 60-bp probe, no competitor; reading: higher = stronger binding; shared flanks, not repeated: … GTCTTGATTCGCTTGACGCTGCTG
Target: Centromere-binding protein 1, full length, N-terminal tag (CBF1, Saccharomyces cerevisiae, UniProt P17106, residues 1-351)
Sequence of UniProt P17106 (whole entry, looked up): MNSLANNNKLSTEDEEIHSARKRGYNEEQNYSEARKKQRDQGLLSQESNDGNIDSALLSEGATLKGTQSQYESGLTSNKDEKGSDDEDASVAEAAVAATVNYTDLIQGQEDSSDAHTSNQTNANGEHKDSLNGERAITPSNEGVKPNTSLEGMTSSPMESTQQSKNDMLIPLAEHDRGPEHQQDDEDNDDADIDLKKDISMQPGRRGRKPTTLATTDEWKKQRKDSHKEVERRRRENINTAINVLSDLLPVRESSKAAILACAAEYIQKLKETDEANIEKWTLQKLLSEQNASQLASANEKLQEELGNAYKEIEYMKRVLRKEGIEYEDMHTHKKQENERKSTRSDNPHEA
`GAAAAATTCCCCAAGAAGGTGACCTATACATGATAG` has a fluorescence intensity of 539 a.u.
`GAAAAGCCATCATCTTGTCAGCTGTTGTCTTGCTAG` gave a fluorescence intensity of 587 a.u.
For `GAAGCTTTTGAAGGTGGTGTCATTATTATTACGTAG`, the fluorescence intensity was 504 a.u.
With `CTATGCATTCTTTTCCACACCACCTTCAAATTTTTC` the fluorescence intensity was 586 a.u.
`GAACAAACAATTGTGACCAATTAATTCTATATATAG` gave a fluorescence intensity of 579 a.u.
`CTACCACTCTGGAACGCCGTGACCAGCTCAGCCTTC` gave a fluorescence intensity of 630 a.u.
For `CCTAACTACTATAAACACATGCAATAGCTTCGTACA`, the fluorescence intensity was 604 a.u.
`CTAAATAACAAAAATCACGAAAAAAAAAAGCTTTTC` gave a fluorescence intensity of 524 a.u.

Mixed results
The inhibition of `O=c1[nH]c(CCl)nc2sc3c(c12)CCCC3` is reported as 28.7% (Replicase polyprotein 1ab, main protease (rep, Severe acute respiratory syndrome coronavirus 2, UniProt P0DTD1); enzyme activity, inhibitor; 20 µM, hit confirmation).
`Cn1sc(=O)n(Cc2ccccc2)c1=O` gave an inhibition of 4% (chymotrypsin; enzyme activity, inhibitor; 10 µM, with DTT).
`CC(C)C[C@@H](C=O)NC(=O)[C@H](CC(C)C)NC(=O)[C@H](CC(C)C)NC(=O)OCc1ccccc1` has an IC50 of 120 nM (SARS-CoV-2; viral replication, qPCR; Vero E6).

For quick reference, copied from above (block 5):
For `GAAGCTTTTGAAGGTGGTGTCATTATTATTACGTAG`, the fluorescence intensity was 504 a.u.
With `CTATGCATTCTTTTCCACACCACCTTCAAATTTTTC` the fluorescence intensity was 586 a.u.
`GAACAAACAATTGTGACCAATTAATTCTATATATAG` gave a fluorescence intensity of 579 a.u.
`GAAAAATTCCCCAAGAAGGTGACCTATACATGATAG` has a fluorescence intensity of 539 a.u.
`GAAAAGCCATCATCTTGTCAGCTGTTGTCTTGCTAG` gave a fluorescence intensity of 587 a.u.
